Measured values gathered from unrelated publications.
Compare with care: the assays were run in different laboratories. Numbers after ± are the reported error.
Oprk1: Kappa-type opioid receptor (Oprk1, Rattus norvegicus, UniProt P34975)
Sigmar1: Sigma non-opioid intracellular receptor 1 (Sigmar1, Rattus norvegicus, UniProt Q9R0C9)
ache: Acetylcholinesterase (ache, Electrophorus electricus, UniProt O42275)
MC1R: Melanocyte-stimulating hormone receptor (MC1R, Homo sapiens, UniProt Q01726)
ampC: Beta-lactamase (ampC, Escherichia coli K-12, UniProt P00811)
Mannan-binding lectin serine protease 2: Mannan-binding lectin serine protease 2 (Homo sapiens, UniProt O00187)

CC(=O)N[C@@H](CCCNC(=N)N)C(=O)N[C@@H](Cc1ccc(O)cc1)C(=O)N[C@@H](CCCNC(=N)NC(=O)NCCCCN)C(=O)N[C@@H](CC(C)C)C(=O)N[C@@H](CCCNC(=N)N)C(=O)N[C@H](Cc1ccc(O)cc1)C(N)=O has a Ki of greater than 5000 nM (NPY1R (Homo sapiens, UniProt P25929); ligand displacement, radioligand).
CC[C@H](C)[C@H](NC(=O)[C@H](CNC(=O)[C@@H]1CCCN1C(=O)[C@H](CCCNC(=N)N)NC(=O)[C@@H](N)CCCNC(=N)N)Cc1ccc(O)cc1)C(=O)N[C@@H](CC(C)C)C(=O)O has a Ki of 5400 nM (NTSR2 (Homo sapiens, UniProt O95665); ligand displacement, radioligand; cell membranes).
The Ki of COC(=O)N(C)[C@@H](Cc1ccccc1)C(=O)N[C@@H](Cc1ccccc1)C(=O)N[C@@H](Cc1ccccc1)C(=O)N[C@@H](CCCNC(=N)N)C(=O)N[C@@H](CC(C)C)C(=O)N[C@@H](CCCNC(=N)N)C(=O)N[C@@H](CCCNC(=N)N)C(=O)N[C@H](C)C(=O)N[C@@H](CCCNC(=N)N)C(=O)N1CCC[C@H]1C(=O)N[C@@H](CCCCN)C(N)=O is reported as 4.93 nM (Oprk1; ligand displacement, radioligand).
CCC(=O)c1ccc2c(c1)sc(=O)n2CCCCCCN1CCCCCC1 has a Ki of 10.4 ± 0.1 nM (Sigmar1; binding, radioligand binding; rat liver membranes; together with: [3H](+)-pentazocine 5 nM).
With COc1ccc2[nH]cc(CCNS(=O)(=O)CCc3cn(-c4cnc5ccccc5c4)nn3)c2c1 the Ki was 22 nM (ache; enzyme activity, inhibitor).
COCCN1COc2c(cc3c4c(c(=O)oc3c2C)CCC4)C1 has a Ki of 270 nM (ache; enzyme activity, inhibitor).
CNC(C)C(=O)NC1COC2CCC(C(=O)NCc3ccccc3)N2C1=O (mixture of isomers) gave a Ki of 8980 nM (Baculoviral IAP repeat-containing protein 2, BIR3 (BIRC2, Homo sapiens, UniProt Q13490); ligand displacement, FP).
The Ki of Cc1cc(O)cc(C)c1CC(N)C(=O)NC1CCNc2c(C(=O)NCc3ccccc3)cc(Cc3ccccc3)cc21 (centres unmarked) is reported as 30 nM (OPRK1 (Homo sapiens, UniProt P41145); ligand displacement, radioligand; cell membranes).
With NCCCC[C@H](NC(=O)[C@H](Cc1c[nH]c2ccccc12)NC(=O)[C@H](CCCCN)NC(=O)CNC(=O)CCC(=O)NN=Cc1cc(C=NNC(=O)CCC(=O)NCC(=O)N[C@@H](CCCCN)C(=O)N[C@@H](Cc2c[nH]c3ccccc23)C(=O)N[C@@H](CCCCN)C(N)=O)cc(C=NNC(=O)CCC(=O)NCC(=O)N[C@@H](CCCCN)C(=O)N[C@@H](Cc2c[nH]c3ccccc23)C(=O)N[C@@H](CCCCN)C(N)=O)c1)C(N)=O the Ki was 105 nM (Tryptase beta-2 (TPSB2, Homo sapiens, UniProt P20231); non-competitive inhibitor).
CC(C)[C@H]1CC[C@@H](N2CC[C@@](C)(c3cccc(O)c3)[C@@H](C)C2)CC1 gave a Ki of 40.3 nM (OPRM1 (Homo sapiens, UniProt P35372); ligand displacement, radioligand).
The Ki of CC[C@H](C)[C@H](NC(=O)CN)C(=O)N[C@H](C(=O)N[C@@H](CC(N)=O)C(=O)N[C@H](C(=O)N[C@@H](CC(C)C)C(=O)N[C@@H](CCC(N)=O)C(=O)N[C@@H](CCCCN)C(=O)N[C@@H](Cc1ccc(O)cc1)C(=O)N[C@@H](Cc1ccc(O)cc1)C(=O)N[C@H]1CSSC[C@@H]2NC(=O)[C@H](CCCCN)NC(=O)[C@H](CCCNC(=N)N)NC(=O)CNC(=O)[C@H](CCCNC(=N)N)NC(=O)[C@H]([C@@H](C)O)NC(=O)[C@H](CO)NC(=O)[C@@H]3CSSC[C@H](NC(=O)[C@H](CCCNC(=N)N)NC(=O)CNC(=O)CNC(=O)[C@H](CCCNC(=N)N)NC(=O)[C@H](C(C)C)NC(=O)[C@H](CCCNC(=N)N)NC1=O)C(=O)N[C@@H](C)C(=O)N[C@@H](C(C)C)C(=O)N[C@@H](CC(C)C)C(=O)N[C@@H](CO)C(=O)N[C@@H](CSSC[C@@H](C(=O)N[C@@H](CCCNC(=N)N)C(=O)N[C@@H](CCCNC(=N)N)C(=O)N[C@@H](CCCCN)C(=O)N[C@@H](CCCCN)C(N)=O)NC2=O)C(=O)N[C@@H](CC(C)C)C(=O)N1CCC[C@H]1C(=O)N[C@@H](CCCCN)C(=O)N[C@@H](C)C(=O)N[C@@H](CCC(=O)O)C(=O)N[C@@H](CCC(N)=O)C(=O)N[C@@H]([C@@H](C)CC)C(=O)NCC(=O)N[C@@H](CCCCN)C(=O)N3)[C@@H](C)O)[C@@H](C)CC is reported as 146 nM (MC1R; ligand displacement in cells).
CCCCc1ccc2c(c1)sc(=O)n2CCCN1CCCCCC1 gave a Ki of 2.2 ± 0.4 nM (Sigmar1; binding, radioligand binding; rat liver membranes; together with: [3H](+)-pentazocine 5 nM).
C[C@]12COc3ccc(OCC4CCCCC4)cc3[C@H]1CCN2 has a Ki of 1.5 nM (SIGMAR1 (Homo sapiens, UniProt Q99720); cell-free assay, radioligand).
With CC1C=CC(C)C(C(=O)O)C1C(=O)O (centres unmarked) the Ki was 400000 nM (ampC).
The Ki of OB(O)c1cnn(-c2cccc(Cl)c2)c1 is reported as 40 nM (ampC; enzyme activity, inhibitor; together with: CENTA).
The Ki of Cc1cc2c(cc1Cl)Cc1c(C(=O)NC3C4(C)CCC(C4)C3(C)C)nn(-c3ccc(Cl)cc3Cl)c1-2 (centres unmarked) is reported as 4500 nM (Cnr1 (Mus musculus, UniProt P47746); binding, radioligand displacement; mouse brain homogenate without cerebellum; together with: [3H]CP-55,940).
CC[C@H](C)[C@H](NC(=O)[C@@H]1CSSC[C@H](NC(=O)[C@H](Cc2ccc(O)cc2)NC(=O)CN)C(=O)N[C@@H](CO)C(=O)N[C@@H](CCCNC(=N)N)C(=O)N[C@@H](CO)C(=O)N[C@@H](Cc2ccc(O)cc2)C(=O)N2CCC[C@H]2C(=O)N2CCC[C@H]2C(=O)N[C@@H](C(C)C)C(=O)N1)C(=O)N1CCC[C@H]1C(=O)N[C@@H](CC(=O)O)C(N)=O gave a Ki of 120 nM (Mannan-binding lectin serine protease 2; enzyme activity, inhibitor).
With CC(C)C[C@H](NC(=O)[C@H](CCCNC(=N)N)NC(=O)[C@H](Cc1ccccc1)NC(=O)[C@H](Cc1ccccc1)NC(=O)[C@H](Cc1ccccc1)N(C)C(=O)COc1ccccc1)C(=O)N[C@@H](CCCNC(=N)N)C(=O)N[C@@H](CCCNC(=N)N)C(=O)N[C@H](C)C(=O)N[C@@H](CCCNC(=N)N)C(=O)N1CCC[C@H]1C(=O)N[C@@H](CCCCN)C(N)=O the Ki was 7.34 nM (Oprk1; ligand displacement, radioligand).
With CC[C@H](C)[C@H](NC(=O)CN)C(=O)N[C@H](C(=O)N[C@@H](CC(N)=O)C(=O)N[C@H](C(=O)N[C@@H](CC(C)C)C(=O)N[C@@H](CCC(N)=O)C(=O)N[C@@H](CCCCN)C(=O)N[C@@H](Cc1ccc(O)cc1)C(=O)N[C@@H](Cc1ccc(O)cc1)C(=O)N[C@H]1CSSC[C@@H]2NC(=O)[C@H](CCCCN)NC(=O)[C@H](CCCNC(=N)N)NC(=O)CNC(=O)[C@H](CCCNC(=N)N)NC(=O)[C@H]([C@@H](C)O)NC(=O)[C@H](CO)NC(=O)[C@@H]3CSSC[C@H](NC(=O)[C@H](CCCNC(=N)N)NC(=O)CNC(=O)CNC(=O)[C@H](CCCNC(=N)N)NC(=O)[C@H](C(C)C)NC(=O)[C@H](CCCNC(=N)N)NC1=O)C(=O)N[C@@H](C)C(=O)N[C@@H](C(C)C)C(=O)N[C@@H](CC(C)C)C(=O)N[C@@H](CO)C(=O)N[C@@H](CSSC[C@@H](C(=O)N[C@@H](CCCNC(=N)N)C(=O)N[C@@H](CCCNC(=N)N)C(=O)N[C@@H](CCCCN)C(=O)N[C@@H](CCCCN)C(N)=O)NC2=O)C(=O)N[C@@H](CC(C)C)C(=O)N1CCC[C@H]1C(=O)N[C@@H](CCCCN)C(=O)N[C@@H](CCC(=O)O)C(=O)N[C@@H](CCC(=O)O)C(=O)N[C@@H](CCC(N)=O)C(=O)N[C@@H]([C@@H](C)CC)C(=O)NCC(=O)N[C@@H](CCCCN)C(=O)N3)[C@@H](C)O)[C@@H](C)CC the Ki was 42 nM (MC1R; ligand displacement in cells).
With CC[C@H](C)[C@H](NC(=O)[C@@H]1CSSC[C@H](NC(=O)[C@H](Cc2ccc(O)cc2)NC(=O)CNC(C)=O)C(=O)N[C@@H](CO)C(=O)N[C@@H](CCCNC(=N)N)C(=O)N[C@@H](CO)C(=O)N[C@@H](Cc2ccc(O)cc2)C(=O)N2CCC[C@H]2C(=O)N2CCC[C@H]2C(=O)N[C@@H](C(C)C)C(=O)N1)C(=O)N1CCC[C@H]1C(=O)N[C@@H](CC(=O)O)C(N)=O the Ki was 70 nM (Mannan-binding lectin serine protease 2; enzyme activity, inhibitor).
CNC(=O)C1CCN(c2ccccc2NC(=O)c2ccc(-c3cc(O)ccc3C)c(C)n2)CC1 has a Ki of 0.7 nM (SRC (Homo sapiens, UniProt P12931); cell-free assay, TR-FRET).
CC(Cc1ccccc1Sc1ccccc1)N(C)C (centres unmarked) has a Ki of 780 nM (SLC6A3 (Homo sapiens, UniProt Q01959); ligand displacement in cells, radioligand).
CCCC(=O)c1ccc2c(c1)sc(=O)n2CCCCCCN1CCCCCC1 gave a Ki of 10.8 ± 0.4 nM (Sigmar1; binding, radioligand binding; rat liver membranes; together with: [3H](+)-pentazocine 5 nM).

Excerpt of the above:
With CC[C@H](C)[C@H](NC(=O)CN)C(=O)N[C@H](C(=O)N[C@@H](CC(N)=O)C(=O)N[C@H](C(=O)N[C@@H](CC(C)C)C(=O)N[C@@H](CCC(N)=O)C(=O)N[C@@H](CCCCN)C(=O)N[C@@H](Cc1ccc(O)cc1)C(=O)N[C@@H](Cc1ccc(O)cc1)C(=O)N[C@H]1CSSC[C@@H]2NC(=O)[C@H](CCCCN)NC(=O)[C@H](CCCNC(=N)N)NC(=O)CNC(=O)[C@H](CCCNC(=N)N)NC(=O)[C@H]([C@@H](C)O)NC(=O)[C@H](CO)NC(=O)[C@@H]3CSSC[C@H](NC(=O)[C@H](CCCNC(=N)N)NC(=O)CNC(=O)CNC(=O)[C@H](CCCNC(=N)N)NC(=O)[C@H](C(C)C)NC(=O)[C@H](CCCNC(=N)N)NC1=O)C(=O)N[C@@H](C)C(=O)N[C@@H](C(C)C)C(=O)N[C@@H](CC(C)C)C(=O)N[C@@H](CO)C(=O)N[C@@H](CSSC[C@@H](C(=O)N[C@@H](CCCNC(=N)N)C(=O)N[C@@H](CCCNC(=N)N)C(=O)N[C@@H](CCCCN)C(=O)N[C@@H](CCCCN)C(N)=O)NC2=O)C(=O)N[C@@H](CC(C)C)C(=O)N1CCC[C@H]1C(=O)N[C@@H](CCCCN)C(=O)N[C@@H](CCC(=O)O)C(=O)N[C@@H](CCC(=O)O)C(=O)N[C@@H](CCC(N)=O)C(=O)N[C@@H]([C@@H](C)CC)C(=O)NCC(=O)N[C@@H](CCCCN)C(=O)N3)[C@@H](C)O)[C@@H](C)CC the Ki was 42 nM (MC1R; ligand displacement in cells).
CCC(=O)c1ccc2c(c1)sc(=O)n2CCCCCCN1CCCCCC1 has a Ki of 10.4 ± 0.1 nM (Sigmar1; binding, radioligand binding; rat liver membranes; together with: [3H](+)-pentazocine 5 nM).
